# Experimental data gathered from unrelated publications.
# Numbered parts are unrelated; each lists some results of a single study.

# Series 1 — effect on: enzyme activity; action: inhibitor; concentration: 20 µM; notes: hit confirmation, with DTT
# Target: Replicase polyprotein 1ab, main protease (rep, Severe acute respiratory syndrome coronavirus 2, UniProt P0DTD1)
Compound,inhibition
COc1ncc(-c2ccc3nccc(-c4ccnnc4)c3c2)cc1NS(=O)(=O)c1ccc(F)cc1F,37.6%
CC[n+]1c(-c2ccccc2)c2cc(N)ccc2c2ccc(N)cc21,30%
COC(=O)/C=C/c1cc(O)ccc1O,-54.6%
O=C(O)c1cc(O)c(O)c(O)c1,2.5%

# Series 2 — method: RNA Bind-n-Seq; molecule type: RNA; medium: in vitro; concentration: 200 nM; notes: whole 134-nt RNA, ends assumed; together with: 150 mM KCl; reference: input library; direction: higher = stronger binding
# Target: Ras GTPase-activating protein-binding protein 1, full length (G3BP1, Homo sapiens, UniProt Q13283)
# UniProt Q13283, sequence (whole entry, looked up): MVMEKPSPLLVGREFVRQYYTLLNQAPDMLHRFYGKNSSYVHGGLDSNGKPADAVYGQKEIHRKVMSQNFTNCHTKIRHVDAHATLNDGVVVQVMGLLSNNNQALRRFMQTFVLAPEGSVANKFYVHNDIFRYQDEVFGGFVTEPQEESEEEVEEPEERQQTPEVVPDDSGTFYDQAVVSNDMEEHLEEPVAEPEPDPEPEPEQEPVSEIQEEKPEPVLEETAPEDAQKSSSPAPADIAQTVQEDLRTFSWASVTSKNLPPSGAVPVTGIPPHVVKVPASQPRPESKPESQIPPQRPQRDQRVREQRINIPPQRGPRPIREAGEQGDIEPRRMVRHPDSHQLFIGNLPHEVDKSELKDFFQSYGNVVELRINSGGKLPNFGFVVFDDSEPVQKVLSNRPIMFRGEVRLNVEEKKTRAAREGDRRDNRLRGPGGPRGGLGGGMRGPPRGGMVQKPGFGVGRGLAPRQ
# Shared flanks, not repeated: GGGAGUUCUACAGUCCGACGAUC … UGGAAUUCUCGGGUGUCAAGG
Strand,log2 enrichment
CCUGUGCUACACAUCGUAUGUACCGAAUCGGCCCCCCCGGGCCCCCCCGGCCCCCCCGGGAAAGUAUUAUGUUACGCCGUUCGGAUCUGC,0.0297
UGGGAGGUGAAUUUUGUUUAUUUUUUUAGCUCAUUUCCAGGGGUGGGAAUUUUUUUUUAAUAUGUGUCAUGAAUAAAGUUGUUUUUGAAA,-0.0898
UUCACACCAAGCUGGGGAACAUCAAGACCUUAAACCUGGCAGGCAACCUCCUAGAGAGUCUGAGUGGCCUGCACAAGCUCUACUCACUGG,-1.3
AAACUUUAGAGGAGGAUCUGAUGGAUAUGGCAGUGGACGUGGAUUUGGGGAUGGCUAUAAUGGGUAUGGAGGAGGACCUGGAGGUGGCAA,0.457
CCUGUGCUACACAUCGUAUGUACCGAAUCAAACCCCCCCAAAUUUUUAAACCCCCCCAAAAAAGUAUUAUGUUACGCCGUUCGGAUCUGC,0.951
UUAGAAGAAUUUGGAAGGCCUUAAAUAUAGUAGCUUAGUUUGAAAAAUGUGAAGGACUUUCGUAACGGAAGUAAUUCAAGAUCAAGAGUA,-2.33
UCAAGUCCUGUGCUACACAUCGUAUGUACCGAAUCGGGCCCGGCCCGGGCCCGGAAAGUAUUAUGUUACGCCGUUCGGAUCUGCACUUCC,-1.09
UCAAGUCCUGUGCUACACAUCGUAUGUACCGAAUCGGGUUGGGGUUGGGGUUGGGAAAGUAUUAUGUUACGCCGUUCGGAUCUGCACUUC,0.872

# Series 3 — method: protein binding microarray; molecule type: double-stranded DNA, one strand shown; medium: in vitro; concentration: not given; reference: not given; direction: higher = stronger binding
# Target: Histone acetyltransferase KAT6A, winged helix 2, GST fusion (KAT6A, Homo sapiens, UniProt Q92794, residues 85-181)
# Notes: 8-mer, flanks averaged, mean of 2 arrays, mostly near background
# Residues (chain): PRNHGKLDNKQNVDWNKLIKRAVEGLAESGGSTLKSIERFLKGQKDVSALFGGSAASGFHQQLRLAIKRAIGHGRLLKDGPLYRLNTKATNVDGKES
Strand,E-score
AAGACACC,-0.0239
GTATACCA,-0.0239
AGACGAGC,-0.0323
GTCGATCA,0.0671
GAGAGGAA,0.0572
TCCGCTCA,-0.0466
GTCTGGCA,-0.0598
AGCAAATA,0.0712

# Series 4 — method: protein-binding microarray; molecule type: double-stranded DNA, one strand shown; medium: in vitro; concentration: not given; direction: higher = stronger binding
# Target: Cyclic AMP-dependent transcription factor ATF-1 (ATF1, Homo sapiens, UniProt P18846, residues 1-271, full length assumed)
# Notes: k-mer, scored over probes, only values ≥0.25
# Residues (chain): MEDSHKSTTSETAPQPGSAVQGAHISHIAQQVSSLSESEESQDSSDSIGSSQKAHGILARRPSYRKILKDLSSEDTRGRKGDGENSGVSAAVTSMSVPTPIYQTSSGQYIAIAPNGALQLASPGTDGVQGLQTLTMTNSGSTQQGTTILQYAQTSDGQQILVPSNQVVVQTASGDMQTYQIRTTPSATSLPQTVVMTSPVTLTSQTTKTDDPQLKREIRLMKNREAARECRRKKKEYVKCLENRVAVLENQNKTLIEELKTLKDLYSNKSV
Strand,E-score
CGTAACG,0.309
ATTGACG,0.363
GTCGTAA,0.266
CATCGTC,0.255

# Series 5 — effect on: enzyme activity; action: inhibitor; concentration: 20 µM
# Target: Replicase polyprotein 1ab, polymerase (rep, Severe acute respiratory syndrome coronavirus 2, UniProt P0DTD1)
SMILES,inhibition [%]
COc1cc(C)nc(-n2nc(C)cc2OC)n1,0.9
Cn1cc(/C=C2\C(=O)Nc3cccnc32)c2ccccc21,7.42
CCCN1CCC[C@H](c2cccc(O)c2)C1,-0.17
N[C@@H](CCNCc1ccc(Cl)cc1)C(=O)N1CCCCC1,-11.7
CN(CCOc1ccc(C[C@H](Nc2ccccc2C(=O)c2ccccc2)C(=O)O)cc1)c1ccccn1,-0.47
NC(=O)C1=CN([C@@H]2O[C@H](COP(=O)(O)OP(=O)(O)OC[C@H]3O[C@@H](n4cnc5c(N)ncnc54)[C@H](OP(=O)(O)O)[C@@H]3O)[C@@H](O)[C@H]2O)C=CC1,36.5
COc1oc(=O)c2cc(N)ccc2c1Cl,0.95
O=S(=O)(O)CCSSCCS(=O)(=O)O,2.4
Nc1ncnc2c1ncn2[C@@H]1O[C@H](C(=O)N2CCN(CC(=O)Nc3cccc4c3CNC4=O)CC2)[C@@H](O)[C@H]1O,1.52
OCCOc1ccc(/C(=C(/CCCl)c2ccccc2)c2ccccc2)cc1,1.73
C[C@H](CCC(=O)O)[C@H]1CC[C@H]2[C@@H]3C(=O)C[C@@H]4CC(=O)CC[C@]4(C)[C@H]3CC(=O)[C@]12C,1.91
O=C(O)CCc1cc(C(=O)c2ccc(OC3CCCC3)cc2O)ccc1OCc1ccc2c(=O)[nH]oc2c1,-3.66
O=C(O)CCCO,5.04
CC(Oc1c(Cl)cccc1Cl)C1=NCCN1 (centres unmarked),-0.59
O=C(O)[C@@H](O)[C@H](O)[C@H](O)[C@@H](O)C(=O)O,1.41
CCOC(=O)C1=C(C)NC(C)=C(C(=O)OC)C1c1cccc([N+](=O)[O-])c1 (centres unmarked),-1.66
C[C@H]1CO[C@@H]2Cn3cc(C(=O)NCc4ccc(F)cc4F)c(=O)c(O)c3C(=O)N12,2.66
Cc1ccc(CCCO)c(NCc2ccc3nc(NCCCN4CCOCC4)n(Cc4nc(C)ccc4O)c3c2)c1,-3.26
CC1/C=C/C=C/C=C/C=C/C=C/C=C/C=C/C(OC2O[C@H](C)[C@@H](O)[C@H](N)[C@@H]2O)CC(O)C(C(=O)O)C(O)CC(=O)CC(O)CC(O)CC(O)CC(=O)CCCC(=O)CC(=O)OC1C(C)CC(C)C(O)CC(=O)c1ccc(N)cc1 (some centres unmarked),54.8
CCOC(=O)[C@H](CCc1ccccc1)N[C@@H](C)C(=O)N1Cc2cc(OC)c(OC)cc2C[C@H]1C(=O)O,0.27
CO[C@H]1[C@H](O)[C@@H](O)[C@@H](O)[C@H](O)[C@@H]1O,-1.36
CCCn1c(=O)c2[nH]c(C3CCCC3)nc2n(CCC)c1=O,-0.68
C=CCNc1nc(NCC=C)nc(N2CCN(C(c3ccc(F)cc3)c3ccc(F)cc3)CC2)n1,11.7
Cc1ccc(N2CCN(CCC3NC(=O)c4ccccc43)CC2)cc1C (centres unmarked),3.28
CS(=O)(=O)CCNCc1ccc(-c2ccc3ncnc(Nc4ccc(OCc5cccc(F)c5)c(Cl)c4)c3c2)o1,-6.53

# Series 6 — method: RNA Bind-n-Seq; molecule type: RNA; medium: in vitro; concentration: not given; notes: 4-mer, random 30-nt RNA, single round; together with: RocA, ADP, phosphate; reference: input library; direction: higher = stronger binding
# Target: ATP-dependent RNA helicase DDX3X, helicase core (DDX3X, Homo sapiens, UniProt O00571, residues 132-607)
# UniProt O00571, sequence (132-607, looked up): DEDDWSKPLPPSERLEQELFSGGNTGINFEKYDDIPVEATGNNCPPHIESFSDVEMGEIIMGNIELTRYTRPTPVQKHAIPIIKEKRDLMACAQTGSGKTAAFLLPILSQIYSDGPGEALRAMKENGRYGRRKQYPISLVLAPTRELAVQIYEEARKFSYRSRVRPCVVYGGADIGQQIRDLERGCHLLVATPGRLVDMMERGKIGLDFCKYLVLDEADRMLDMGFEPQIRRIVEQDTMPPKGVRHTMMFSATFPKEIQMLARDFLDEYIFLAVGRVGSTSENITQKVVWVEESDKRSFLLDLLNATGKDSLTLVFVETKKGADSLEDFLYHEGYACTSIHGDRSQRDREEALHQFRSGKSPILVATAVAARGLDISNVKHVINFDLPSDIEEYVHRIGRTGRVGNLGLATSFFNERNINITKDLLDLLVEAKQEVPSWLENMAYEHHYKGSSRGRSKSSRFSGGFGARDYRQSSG
Strand,4-mer enrichment
GAUC,0.843 fold
CGGA,1.25 fold
UAUC,0.737 fold

# Series 7 — cell line: HEK-293T; effect on: pseudovirus infection; organism: VSV pseudotyped with SARS-CoV-2 spike; concentration: 10 µM; time: 16 h; reference: vehicle-treated
Structure (SMILES),GFP-positive cells [%]
CCn1cc(C(=O)O)c(=O)c2cc(F)c(N3CCNCC3)nc21,84.6
CCCCN(CCCC)CC(O)c1cc(Cl)cc2c1-c1ccc(Cl)cc1/C2=C/c1ccc(Cl)cc1 (centres unmarked),76
C[C@]12Cc3c[nH]nc3C[C@@H]1CC[C@@H]1[C@@H]2CC[C@@]2(C)[C@H]1CC[C@]2(C)O,134
Nc1nc(F)nc2c1ncn2[C@@H]1O[C@H](CO)[C@@H](O)[C@@H]1O,70.7

# For quick reference, copied from above (series 1):
Compound,inhibition
COC(=O)/C=C/c1cc(O)ccc1O,-54.6%
O=C(O)c1cc(O)c(O)c(O)c1,2.5%
COc1ncc(-c2ccc3nccc(-c4ccnnc4)c3c2)cc1NS(=O)(=O)c1ccc(F)cc1F,37.6%
CC[n+]1c(-c2ccccc2)c2cc(N)ccc2c2ccc(N)cc21,30%
